Assay results of several laboratories.
Each numbered part is a random draw from the data of one study; scales do not carry over between parts.

Series 1
Target: Interferon regulatory factor 3, full length, phosphomimetic (IRF3, Homo sapiens, UniProt Q14653, residues 1-427, S386D/S396D/S398D/S402D/T404D/S405D)
Technique: protein-binding microarray
Molecule type: double-stranded DNA, one strand shown
Matrix: in vitro
Concentration: 2540 nM top
Setting: 60-bp whole probe
Together with: salmon DNA 0.4 mg/ml
Relative to: random background probes
Reading: higher = stronger binding
Constant ends, left off below: GCCTAGCAC … GTCTTGATTCGCTTGACGCTGCTG
Target sequence (chain): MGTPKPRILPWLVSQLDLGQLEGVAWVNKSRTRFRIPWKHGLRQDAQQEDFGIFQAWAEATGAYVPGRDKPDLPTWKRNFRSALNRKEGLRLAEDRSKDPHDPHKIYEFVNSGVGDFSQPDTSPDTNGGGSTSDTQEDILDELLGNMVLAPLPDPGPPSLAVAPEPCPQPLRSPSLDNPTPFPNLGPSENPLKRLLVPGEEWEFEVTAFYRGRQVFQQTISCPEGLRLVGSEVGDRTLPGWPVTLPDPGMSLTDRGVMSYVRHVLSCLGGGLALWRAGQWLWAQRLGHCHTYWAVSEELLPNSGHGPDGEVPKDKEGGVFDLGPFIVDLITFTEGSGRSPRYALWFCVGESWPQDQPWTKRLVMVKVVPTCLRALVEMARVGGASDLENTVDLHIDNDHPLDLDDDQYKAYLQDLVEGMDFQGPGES
Oligonucleotide	fitted relative affinity [z-score]
TTTTTTTTTTTTTTTTTGTAGTGCTAG	1.56
CCTTTTTTGTTGTTTTTTGGGTGCTAG	3.17
TTTTTTTTCACTATTGCTTCGTGCTAG	2.18
TTAGGTATCCTTACCCTTTAGTGCTAG	4.04
TTAGGTTTCCTTCTCCCTTAGTGCTAG	9.69
GACGATTACAGTATCGAGACGTGCTAG	0.527
GTGTGTGTCTGATTATTTACGTGCTAG	0.461
TCAGCTCTGCAGCTCAGACTGTGCTAG	-0.309
TCCTTTATGTCCTGTCTACATGTGCTA	1.82
CTAGATTTCGGGTTTCGATTAGTGCTA	3.36
TTCGAACTGAGTTTCGATTAGTGCTAG	2.83
GACGGTTTCGGAACTGGGGACGTGCTA	7.64
GACGGACTGCTGCTCCTGACGTGCTAG	-0.631
TTAGATATCGGGTTTCAATTAGTGCTA	0.882
TTAGGAGTGGTACATGAAGCGTGCTAG	-0.69
GACGGTATCGGGCCTGGGGACGTGCTA	0.424
GACGGTTCCCGTTTCGGGACGTGCTAG	4.7
TTAGGTCTCCTTATCCATTAGTGCTAG	2.79
TTAGGACCGCTACTGCTTTAGTGCTAG	-0.485

Series 2
Target: Prothrombin, mature alpha-thrombin (F2, Homo sapiens, UniProt P00734)
Technique: aptamer microarray, sandwich
Molecule type: DNA with 2'F-ANA
Matrix: in vitro
Concentration: 200 nM
Setting: whole 15-mer aptamer, many near background
Together with: Cy3 exosite-II aptamer, 400 nM
Reading: higher = stronger binding
Oligonucleotide: GGTTGGTGTGGTTGG
Modification	mean fluorescence intensity
2'F-ANA at 1 4 5 6 11 13 14 15	47.4 a.u.
2'F-ANA at 1 2 3 5 8 9 11 12 13 14 15	50.2 a.u.
2'F-ANA at 1 4 6 7 8 10 12 13	51.7 a.u.
2'F-ANA at 1 3 4 5 7 8 10 12 14 15	47.7 a.u.
2'F-ANA at 3 4 6 8 9 10 11 13 15	176 a.u.
2'F-ANA at 2 5 6 8 12	175 a.u.
2'F-ANA at 2 4 5 7 8 9 10 13 14 15	209 a.u.
2'F-ANA at 1 3 6 8 9 11 12	447 a.u.
2'F-ANA at 1 2 3 4 7 8 13 14 15	74.7 a.u.
2'F-ANA at 1 3 4 5 12 14	70 a.u.
2'F-ANA at 1 6 10 11 13 15	53.1 a.u.
2'F-ANA at 1 4 5 7 8 10 12 13	54.2 a.u.
2'F-ANA at 4 8 10 12 13 15	80.8 a.u.
2'F-ANA at 3 4 5 7 8 9 11 12 15	171 a.u.
2'F-ANA at 2 3 5 9 12 15	195 a.u.
2'F-ANA at 5 6 7 10 11 12 13 14 15	46.1 a.u.
2'F-ANA at 2 3 5 7 8 10 12 13 14	67.4 a.u.
2'F-ANA at 1 2 3 4 8 10 12 13 14 15	54 a.u.
2'F-ANA at 1 4 5 6 8 10 11 12 14	47.7 a.u.
2'F-ANA at 1 6 9 12 13 15	272 a.u.

Series 3
Target: Sal-like protein 4, full length isoform A (SALL4, Homo sapiens, UniProt Q9UJQ4, residues 1-1053)
Sequence of UniProt Q9UJQ4 (whole entry, looked up): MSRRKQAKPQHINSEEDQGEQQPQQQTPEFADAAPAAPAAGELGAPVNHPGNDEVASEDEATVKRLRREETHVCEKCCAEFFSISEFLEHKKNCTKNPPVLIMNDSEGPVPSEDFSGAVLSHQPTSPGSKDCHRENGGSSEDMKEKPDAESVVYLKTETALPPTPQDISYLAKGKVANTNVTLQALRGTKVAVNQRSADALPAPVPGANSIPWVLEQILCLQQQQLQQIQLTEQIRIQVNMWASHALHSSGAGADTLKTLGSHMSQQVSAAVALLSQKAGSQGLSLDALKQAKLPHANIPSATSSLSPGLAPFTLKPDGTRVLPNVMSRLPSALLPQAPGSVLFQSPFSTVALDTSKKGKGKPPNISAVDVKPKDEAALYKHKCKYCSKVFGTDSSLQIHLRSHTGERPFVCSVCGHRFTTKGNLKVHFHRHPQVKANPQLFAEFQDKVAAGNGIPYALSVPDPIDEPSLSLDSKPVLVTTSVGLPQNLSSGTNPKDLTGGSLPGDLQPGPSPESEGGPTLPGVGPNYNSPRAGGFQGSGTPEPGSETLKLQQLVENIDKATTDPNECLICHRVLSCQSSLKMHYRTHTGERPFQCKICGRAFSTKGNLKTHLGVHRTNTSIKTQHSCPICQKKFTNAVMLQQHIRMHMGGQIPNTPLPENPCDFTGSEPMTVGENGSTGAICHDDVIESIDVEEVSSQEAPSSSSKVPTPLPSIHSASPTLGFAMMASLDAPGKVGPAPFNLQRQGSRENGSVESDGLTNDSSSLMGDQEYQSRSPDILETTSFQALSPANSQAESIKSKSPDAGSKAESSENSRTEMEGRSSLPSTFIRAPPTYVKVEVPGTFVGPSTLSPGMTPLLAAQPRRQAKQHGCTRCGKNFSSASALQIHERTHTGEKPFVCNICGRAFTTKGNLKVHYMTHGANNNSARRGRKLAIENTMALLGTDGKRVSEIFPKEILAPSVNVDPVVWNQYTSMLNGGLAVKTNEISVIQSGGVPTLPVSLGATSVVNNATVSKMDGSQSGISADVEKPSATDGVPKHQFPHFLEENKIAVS
Technique: universal PBM
Molecule type: double-stranded DNA, one strand shown
Matrix: in vitro
Concentration: 600 nM
Setting: 8-mer, flanks averaged, mean of replicates
Reading: higher = stronger binding
Oligonucleotide	E-score
CAGTAGGA	-0.118
AATTGTGT	0.11
GACGAGAA	0.159
AAGGGACA	-0.0532
GATTACCA	-0.122
CAAGCGGC	-0.171
GGCTAGCA	-0.137
GACTCCCC	-0.288
TCTCAGAA	0.136
ACCTCCCA	-0.267
GCGGTTAC	-0.106
CCACGCGG	-0.407
ATTTGATA	0.324
CCCATGAC	-0.166
TACTGAGA	-0.0721
AGTGTGAG	0.0639

Series 4
Target: RNA binding protein fox-1 homolog 2, RRM domain, GST-SBP tag (RBFOX2, Homo sapiens, UniProt O43251-10, residues 100-194)
Technique: RNA Bind-n-Seq
Molecule type: RNA
Matrix: in vitro
Concentration: 365 nM
Setting: natural RNA segment, single round, ends assumed
Relative to: no-protein control
Reading: higher = stronger binding
Construct (chain): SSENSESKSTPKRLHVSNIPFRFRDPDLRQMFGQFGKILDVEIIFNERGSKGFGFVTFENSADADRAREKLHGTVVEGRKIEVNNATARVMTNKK
Oligonucleotide	RBNS enrichment (R)
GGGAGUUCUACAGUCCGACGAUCACUUAGGAUAUUUUCAUUUAUGAUGGGUUUAUCAGGAAGUAACCCCAUGGUAAGUUGAGGCAUAUCUGUAUAUAUUUAAACCUAAUUAAUUCUUGAGCUGAAAAUAAAUAUGGAAUUCUCGGGUGCCAA	0.493
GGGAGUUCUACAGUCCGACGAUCUGAGGCCCUAAGGUCUCAGUGCAUAGCAUACCUGCCACUCUGGAUGUUUUCCUGGGCUUCAUAUCUGUAUGGCAAGGAGGGAGCUGUCCUUCAGCAGACAAAGUCAAGCAUGGAAUUCUCGGGUGCCAA	2.16
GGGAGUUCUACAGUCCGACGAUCAGGAAUGCUUUUAGCAGAAAACAGGAAAGAAAAUAUCCCUUAAAAAUUUUUUUUGAAUGUGUGGAAGUAAUUUUAGUAUAAUUAGAUUUUUUCCAUAUUUUUGAAAGAUUUGGAAUUCUCGGGUGCCAA	1.35
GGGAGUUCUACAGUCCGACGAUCUGUUAACCUUUAUGUCAGCCAUCGUCAGUUUCAACAUCUAGACCUAAAUAGAAAGUUAGCUGUUCCGCAGACAGGCGUAGUCUUGAGUGUCCUGUGUGGUCAGUGGCAGUUGGAAUUCUCGGGUGCCAA	1.3
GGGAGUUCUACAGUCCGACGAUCGGAAGCACCUCCUUCACGGUCAGGGGGCCUGUGCUUGGCUUUCUGCCAUCAGACAUUAAGCUGUAGCUGGCUCUGGCCAGCUGCUCCAGUGUACCAGAACCUGAGGAUGCUGGAAUUCUCGGGUGCCAA	0.342
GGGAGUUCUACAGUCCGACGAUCCUCGGGGGUGGUUGUUCUUCAAGCAAGUUCUGCUUGCACUUUUGCAUUUGCCUAACAGACUUUUGCAGAGGCGAUGGCAGAGAGCAGCUGCAGGCAUGGUCCCUGGAGCCUGGAAUUCUCGGGUGCCAA	0.251
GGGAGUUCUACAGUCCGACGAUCUGGGGACAAGGAUCAUCUAUACAGUGAAAUCAUGUCUCAGUUCCCAUCUAGUAAAAUGGCUGAAGGGGAAGAGAAGGAGGACCAAUCUGAAGACAAGAGCUCACCCACUGUGGAAUUCUCGGGUGCCAA	0.654
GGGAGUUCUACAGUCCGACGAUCCCAAGAUGAUUGCCUUAUUGAAUAGGUCACUACUAAGGCCCUUAAGUGUUGAUACCUGCCAUGUGUGGAGACAGUGUAAAUUCUACAUGAGUGUGAAACAAGGCAAGUCUUGGAAUUCUCGGGUGCCAA	0.574

Some of these lines once more (series 2):
Modification	mean fluorescence intensity
2'F-ANA at 1 4 5 6 8 10 11 12 14	47.7 a.u.
2'F-ANA at 1 3 6 8 9 11 12	447 a.u.
2'F-ANA at 1 6 10 11 13 15	53.1 a.u.
2'F-ANA at 3 4 5 7 8 9 11 12 15	171 a.u.
2'F-ANA at 2 5 6 8 12	175 a.u.
2'F-ANA at 1 4 5 6 11 13 14 15	47.4 a.u.
2'F-ANA at 1 2 3 4 8 10 12 13 14 15	54 a.u.
2'F-ANA at 1 2 3 5 8 9 11 12 13 14 15	50.2 a.u.
2'F-ANA at 5 6 7 10 11 12 13 14 15	46.1 a.u.
